Results pooled from the literature.
A part holds a random share of what one study measured.

Series 1 — technique: RNA Bind-n-Seq; molecule type: RNA; medium: in vitro; concentration: 200 nM; setting: whole 134-nt RNA, ends assumed; with: 150 mM KCl; reference: input library; direction: higher = stronger binding; measurement: log2 enrichment
Target: Fragile X messenger ribonucleoprotein 1, C-terminal low-complexity region (Fmr1, Mus musculus, UniProt P35922)
Shared flanks, not repeated: GGGAGUUCUACAGUCCGACGAUC … UGGAAUUCUCGGGUGUCAAGG
UGGGAGGUGGAUUUUGUUUAUUUUUUUAGCUCAUUUCCAGGGGUGGGAAUUUUUUUUUAAUAUGUGUCAUGAAUAAAGUUCUUUUUGAAA: 0.253
ACCAUGCAGGUUGGCAUCUUUGGGAAGUGGGGCAAGGGGGGGAUAGGGAGGGGGGUAACACUUUGGGAACAGGUGGUCCCAGGUCGUUUC: 1.1
UUCAUGAGGACCUCCGCCUGCUCUUGGAGACCCACCUGCCGUCCAAAAAGAAGAAAGUACUCUUGGGAGUUGGGGAUCCCAAGAUUGGUG: -0.215
GCAGGAAGUAAAAACAAAUGGAAAUGCUUCGGAUAGUGGCAGGGGUGGGGGUUGCUAAGGAAAGGGUGAGAUGGGAGUGGGUAAAGAGUU: 0.197
UGGAUAUGGUUAUAGAAGAAGUGGCCGAGAUAAAUAUGGCCCUCCUACUCGCACAGAGUACAGACUUAUUGUGGAGAAUUUGUCAAGUCG: -0.987
CACAGACAACACGCACCCACACAGACACAGAGGGAAGGGGUUGGGAUGGGAAAAGGGUGCACAGCAGGGCGGGGUAGGACCCCAGCCCCU: 1.34

Series 2 — technique: aptamer microarray, sandwich; molecule type: DNA with 2'F-ANA; medium: in vitro; concentration: 200 nM; with: Cy3 exosite-II aptamer, 400 nM; direction: higher = stronger binding; measurement: mean fluorescence intensity; strand: GGTTGGTGTGGTTGG
Target: Prothrombin, mature alpha-thrombin (F2, Homo sapiens, UniProt P00734)
Setting: whole 15-mer aptamer, many near background
2'F-ANA at 1 7 15: 275 a.u.
2'F-ANA at 1 2 7 8 13: 138 a.u.
2'F-ANA at 2 3 5 6 7 8 9 10 12 14 15: 52.2 a.u.
2'F-ANA at 4 8 9 10 14 15: 59 a.u.
2'F-ANA at 1 2 4 6 8 10 11 13: 50.9 a.u.
2'F-ANA at 1 2 3 4 5 8 10 11 12 13: 45.3 a.u.
2'F-ANA at 3 5 9 10 11 12 13 14 15: 101 a.u.
2'F-ANA at 1 3 5 6 9 11 12 13 14: 45.4 a.u.
2'F-ANA at 2 5 7 15: 73.8 a.u.

Series 3 — technique: protein binding microarray; molecule type: double-stranded DNA, one strand shown; medium: in vitro; concentration: not given; reference: not given; direction: higher = stronger binding; measurement: E-score
Target: Histone acetyltransferase KAT6A, both winged helices, GST fusion (KAT6A, Homo sapiens, UniProt Q92794, residues 1-181)
Setting: 8-mer, flanks averaged, mean of 2 arrays, mostly near background
Target sequence (chain): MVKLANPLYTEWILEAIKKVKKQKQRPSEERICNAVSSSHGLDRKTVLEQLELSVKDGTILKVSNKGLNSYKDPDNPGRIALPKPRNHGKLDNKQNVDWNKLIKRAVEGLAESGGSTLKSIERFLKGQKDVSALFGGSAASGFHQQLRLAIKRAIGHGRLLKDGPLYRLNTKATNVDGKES
ACCGCCCG: 0.234
GACAATCC: 0.0354
GTGGTAGA: -0.0777
CCGAGTGA: 0.00492
AGTATGCG: 0.178
AGTCCATG: -0.0903
CCTCCTTC: -0.076
GACAGGAC: -0.00404
CGATGCCC: -0.0208
GCGATCGC: 0.289
CCCAGAGC: -0.135
GGCGGTTA: 0.143

Further values, each from its own experiment
PhoQ, residues 284 288 289 292 302 303 SASVAL — fold induction (PhoP, residues 12 14 15 18 19 QYFSL (Escherichia coli, UniProt P23836); Sort-seq, item: YFP reporter; E. coli; PhoQ-PhoP variant library, with: 10 µM Mg2+; reference: high Mg2+ state, higher = stronger signaling): 15.1

A few entries again (series 3):
GACAATCC: 0.0354
GTGGTAGA: -0.0777
CCGAGTGA: 0.00492
